Results collected from several papers.
Lines come from different studies, so protocols differ. Values joined by “and” are separate records of one study, mostly repeats; a detail may differ. ± marks the error that the study gave.

Compound = CCn1cc(-c2cc(Cn3ccnc3)cc3c2CCN([C@H](c2cc(OC)ccn2)C2CC2)C3=O)c(C(F)(F)F)n1; cell line = Panc 04.03; assay = cell growth; conditions = 120 h; quantity = EC50; value = 0.773 µM
Compound = O=P1(C2CCCCC2)CCCCC1; cell line = HaCaT; assay = annexin V/PI flow cytometry; conditions = IC50, 72 h; quantity = necrotic cells; value = 0.05%
Compound = CCn1cc(-c2cc(Cn3ccoc3=N)cc3c2CCN([C@@H](C)c2cc(OC)ccn2)C3=O)c(C(F)(F)F)n1; cell line = WM-115; assay = cell growth, inhibitor; conditions = 120 h; quantity = EC50; value = 0.0433 µM
Compound = Nc1nnc(-c2ccccc2O)cc1N1CCN(Cc2ccc(OCCOCCNc3cccc4c3C(=O)N(C3CCC(=O)NC3=O)C4=O)c(F)c2)CC1 (stereo not drawn); cell line = H1975 SMARCA4 wild type; assay = ATAC-seq; conditions = 1 µM, 96 h; quantity = sites with decreased accessibility; value = 5.1%
Compound = CCc1ccc(NC(=O)Nc2c[nH]c3ccccc23)cc1; cell line = RAW-ISG; assay = western blot; conditions = concentration not given, with: poly(I:C); how to read = reference: vehicle; quantity = phospho-TBK1/TBK1 ratio; value = 0.671 and 0.854
Compound = O=C(Nc1nnc2n3c(=S)[nH][nH]c3nc(-c3ccc(Cl)cc3)c1-2)c1ccccc1; cell line = SR; assay = SRB; conditions = 10 µM, NCI60 single-dose screen; how to read = reference: untreated; quantity = cell growth; value = 75.2%
Compound = O=C(O)COCC(=O)O; cell line = iPSC-derived hepatocytes B1; assay = cell viability; conditions = 24 h, differentiation day 23; quantity = IC50; value = 11600 µM
Compound = Cn1c(Nc2nc3ccc(C(F)(F)F)cc3s2)nc2cc(C(=O)NCCOCCO)ccc21; cell line = SH-SY5Y; assay = RNA-seq, refers to: LIF mRNA; conditions = 5 µM, 5 h; how to read = reference: untreated cells; quantity = fold change; value = 5.28
Compound = CCNc1nc(Nc2ccc(F)c(Cl)c2)c2ccccc2n1; cell line = Vero; assay = MTT; conditions = 1000 µg/mL; quantity = cytotoxicity; value = 97.4%
Compound = O=C(C[C@@H](C(F)F)n1ccc(F)n1)N1CCC(O)(Cn2cnc3c(cnn3-c3ccc(F)cc3)c2=O)CC1; cell line = CHP-212 parental; assay = PI flow cytometry; conditions = 0.1 µM, 24 h; quantity = G2/M phase cells; value = 13.6%
Compound = COc1cc2ncnc(Nc3ccc(Oc4ccccc4)cc3C)c2cc1OC; cell line = MeWo (NF1); assay = resazurin; conditions = 0.3 µM, 72 h, with: trametinib 0 nM; quantity = viability; value = 99.3%
Compound = Cn1cc(Nc2nccc(-c3ccc4c(c3)CN(C3COC3)CC[C@H]4NC(=O)c3cn(C(C)(C)C)nn3)n2)cn1; cell line = mouse splenic B cells; assay = refers to: IL-3 signalling; conditions = 30 mg/kg, IgD-activated in vivo; how to read = reference: vehicle, direction not given; quantity = pathway activation z-score; value = 3
Compound = Nc1ncnc2c1ncn2[C@@H]1O[C@H](CO)[C@@H](O)[C@H]1O; cell line = activated human T cells; assay = refers to: adenosine; conditions = 30 µM; how to read = reference: DMSO; quantity = log2 fold change; value = 0.759 and 0.7 and 1.5
Compound = C[C@]12CCCN1CC1=NNC(=O)c3cc(F)cc4[nH]c2c1c34; cell line = HCT-8 colorectal cancer cells; assay = cell viability; conditions = concentration not given, with: with temozolomide; quantity = EC50; value = > 3 µM
Compound = CCCCN1C[C@H](O)[C@@H](O)[C@@H](O)[C@H]1CO; cell line = sample A patient fibroblasts; assay = Gb3 level lowering, LC-MS/MS, refers to: Gb3 d18:1/16:0; conditions = 216 h; quantity = IC50; value = 9.8 µM
Compound = CCCCCCCCCCCCCCCC(NCc1ccccc1O)=C1C(=O)OC(CO)C1=O (stereo not drawn); cell line = G2-synchronized tsFT210 cells; assay = flow cytometry; conditions = 5 µM, 4 h, 32 °C, release from G2 arrest; quantity = G1 phase cells; value = 59.2%
Compound = COc1ccc(OC)c(Nc2nc3nonc3nc2N2CCCC(C)C2)c1 (stereo not drawn); cell line = LDR; assay = silenced CMV-GFP reporter derepression, qHTS; quantity = efficacy; value = 28%
Compound = CC/C(=N\NC(=O)C(C)Nc1ccccc1)c1ccc(O)c(C)c1O (stereo not drawn); cell line = SK-OV-3; assay = Western blot; conditions = 10 µM, 1 h, 2D culture, unit not given; how to read = reference: DMSO; quantity = LATS band intensity; value = 0.26 ± 0.34
Compound = CN(C)c1ccc2nc3ccc(=[N+](C)C)cc-3sc2c1; cell line = mouse hippocampal CA1 pyramidal neurons; assay = GABAergic miniature IPSCs, whole-cell patch clamp; test system = brain slice; conditions = 10 µM; quantity = mIPSC decay phase; value = no effect
Compound = C=CC(=O)N1CCC[C@@H](n2nc(-c3ccc(Oc4ccccc4)cc3)c3c(N)ncnc32)C1; cell line = RL; assay = cell growth; conditions = 72 h; quantity = GI50; value = 18.4 µM
Compound = Cc1nc(N(Cc2ccccc2)c2ccc3c(c2)/C(=C/c2ccccc2)C(=O)N3Cc2ccccc2)c2ccccc2n1 (mixture of isomers); cell line = LLC; assay = PI flow cytometry; conditions = 2.0 µM; quantity = cells in G2/M phase; value = 13.9%
Compound = CC(=O)Nc1cccc(-n2c(=O)n(C3CC3)c(=O)c3c(Nc4ccc(I)cc4F)n(C)c(=O)c(C)c32)c1; cell line = MeWo (NF1); assay = cell viability, resazurin; conditions = 100.00 nM, 72 h; how to read = reference: DMSO; quantity = fractional effect; value = 0.5 and 0.447
Compound = COC(=O)COc1c(Cc2cc(C(C)(C)CC(C)(C)C)cc(-n3nc4ccccc4n3)c2OCC(=O)OC)cc(C(C)(C)CC(C)(C)C)cc1-n1nc2ccccc2n1; cell line = Vero; assay = MTT; conditions = 100 µM, 24 h; quantity = growth inhibition; value = 8.22 ± 0.66%
Compound = O=C(/C=C/C=C/C=C/C1CCCCC1)NC1=C[C@@](O)(/C=C/C=C/C=C/C(=O)NC2=C(O)CCC2=O)[C@@H]2O[C@@H]2C1=O; cell line = KYSE-450; assay = cell growth, CellTiter-Glo; conditions = 78 h; quantity = GI50; value = 18.4 µM
Compound = COc1cnc2cccc(N3CCc4c(cc(Cn5ccnc5C)cc4-c4cn(C)nc4C(F)(F)F)C3=O)c2c1; cell line = SU-DHL-6; assay = cell growth, inhibitor; conditions = 120 h; quantity = EC50; value = 0.795 µM
Compound = Cc1cc(Nc2ncc(Cl)c(Nc3ccccc3S(=O)(=O)C(C)C)n2)c(OC(C)C)cc1C1CCNCC1; cell line = CLB-GE; assay = phosphoproteomics LC-MS/MS, refers to: SHC3 phosphorylation; conditions = 200 nM, 60 min; how to read = reference: untreated; quantity = log2 fold change; value = -3.49
Compound = CCCN1CCN(c2ccc3[nH]c(-c4ccc5[nH]c(-c6ccc(C(F)(F)F)cc6)nc5c4)nc3c2)CC1; cell line = TK-10; assay = SRB; conditions = 10 µM, 48 h; quantity = growth percent; value = -13%
Compound = Cn1cc(-c2ccc(-c3cncc(Cl)c3N3CCC4(CCNC4=O)CC3)cc2)cn1; cell line = COLO 205; assay = gene expression, microarray, refers to: DEFB1 mRNA; conditions = concentration not given, 2 h; how to read = reference: untreated cells; quantity = log2 fold change; value = 3.22
Compound = Nc1cccc2c1C(=O)N(C1CCC(=O)NC1=O)C2=O (stereo not drawn); cell line = MM1.S; assay = XTT; conditions = 1.6 µM; how to read = reference: untreated; quantity = viability; value = 25%
Compound = Cc1c(C)c2c(c(C)c1O)CCC(C)(COc1ccc(CC3SC(=O)NC3=O)cc1)O2 (stereo not drawn); cell line = HepG2; assay = high content imaging, refers to: nuclear size; conditions = 24 h, distribution mode 2; quantity = point of departure; value = 81.3 µM
Compound = COc1cccc(N2CCN(S(=O)(=O)c3ccc(-n4cnnn4)cc3)CC2)c1; cell line = LDR; assay = silenced CMV-GFP reporter derepression, qHTS; quantity = efficacy; value = 21%
Compound = COc1cc(/C=C/C(=O)N2CCC=CC2=O)cc(OC)c1OC; cell line = MDA-MB-468; assay = qRT-PCR, refers to: Bcl-2; conditions = 30 µM, 6 h; how to read = reference: time zero; quantity = mRNA expression; value = 85.3 ± 5.7%
Compound = Cc1nn(-c2nc3c(F)cc(F)cc3s2)c(O)c1C(c1ccc(C(F)(F)F)cc1)c1c(C)nn(-c2nc3c(F)cc(F)cc3s2)c1O; cell line = THP1-Dual; assay = western blot; conditions = 40 µM, dose series, with: HT-DNA; how to read = reference: DMSO; quantity = phospho-TBK1 to TBK1 ratio; value = 0.454 and 0.278 and 0.33
Compound = Cn1cnc2c1c(=O)n(CC(=O)Nc1c(Cl)cccc1Cl)c(=O)n2C; cell line = Vero; assay = MTT; conditions = 250 µg/mL; quantity = cytotoxicity; value = 29.3%
Compound = CC(C)C[C@@H](/C=C/S(C)(=O)=O)NC(=O)[C@H](CC(C)C)NC(=O)[C@H](CC(C)C)NC(=O)OCc1ccccc1; cell line = LDR; assay = silenced CMV-GFP reporter derepression, qHTS; quantity = efficacy; value = 107%
Compound = CC(C)NCC(O)c1ccc(O)c(O)c1 (stereo not drawn); cell line = mouse ventricular cardiomyocytes; conditions = dose not given, 0.047 s; quantity = sarcomere length; value = 1.8 µm
Compound = O=[N+]([O-])c1ccc(-c2ccc(/C=N/Nc3nc(N4CCCCC4)nc(N4CCCCC4)n3)o2)cc1; cell line = LDR; assay = silenced CMV-GFP reporter derepression, qHTS; quantity = efficacy; value = 29%
Compound = CC(=O)c1nn(-c2ccc(Cl)cc2)/c(=N/N=C(\C)c2ccc(NC(=O)c3ccccc3)cc2)s1; cell line = HepG2; conditions = 10 µM; quantity = viability; value = 3.59%
Compound = Cn1cc(C2=C(c3ccc(Cl)cc3Cl)C(=O)NC2=O)c2ccccc21; cell line = primary human cortical neurons; assay = Western blot; conditions = 5 µM, 48 h, with: HIV Tat and maraviroc 2.5 µM; quantity = NeuN protein level; value = increased
Compound = Cc1cnc2ccc3c(c2n1)N1CCC(O)N=C1N3C (stereo not drawn); cell line = BALB/c 3T3; assay = colony forming efficiency; conditions = 100 µM; quantity = colony number; value = 0 colonies per plate
Compound = CC/C(=N\NC(=O)NCc1cccc(O)c1)c1ccc(O)c(C)c1O; cell line = SK-OV-3; assay = gene expression, microarray, refers to: DNAJC22; conditions = 10 µM, 24 h; how to read = reference: DMSO; quantity = log ratio; value = -3.06
Compound = C=CC1=C(C)c2cc3[n-]c(cc4nc(cc5[n-]c(cc1n2)c(C)c5C=C)C(C)=C4CCC(=O)O)c(CCC(=O)O)c3C.[Zn+2]; cell line = SH-SY5Y; assay = RNA-seq, refers to: DKK1 mRNA; conditions = 5 µM, 5 h; how to read = reference: untreated cells; quantity = fold change; value = 1.62
Compound = COc1ccccc1OCC(=O)N/N=C/C=C/c1ccc([N+](=O)[O-])o1; cell line = LDR; assay = silenced CMV-GFP reporter derepression, qHTS; quantity = efficacy; value = 83%
Compound = O=c1[nH]nc(OCCCc2ccc(Cl)cc2)c(NCc2cccnc2)c1Br; cell line = HEK293T; assay = RNA-seq, refers to: CLU mRNA; conditions = 10 µM, 6 h; how to read = reference: vehicle; quantity = log2 fold change; value = 0.337
Compound = Clc1nc(NCc2ccco2)c2[nH]cnc2n1; cell line = FD iPSC-derived cardiomyocytes; assay = alternative splicing, RNA-seq, refers to: CACNA1G exon chr17:50609881-50609935; conditions = unit not given; how to read = reference: DMSO minus compound; quantity = ΔPSI; value = -0.206
Compound = CSc1cc(Oc2ccnc3[nH]c(=O)cnc23)ccc1NC(=O)Nc1cc(C(C)(C)C)nn1-c1ccccc1; cell line = patient-derived cell line clone A; assay = RPPA, refers to: phosphorylated STAT5; test system = human; conditions = 1 µM, 4 h; how to read = reference: DMSO; quantity = phospho ratio; value = 0.64
Compound = CCOc1ccc(NC(=O)c2nc(S(=O)(=O)Cc3ccccc3F)ncc2Cl)cc1; cell line = LDR; assay = silenced CMV-GFP reporter derepression, qHTS; quantity = efficacy; value = 79%
Compound = c1ccc2[nH]ccc2c1; cell line = HCT-8; assay = RNA-seq, refers to: CCNG2; conditions = concentration not given; quantity = mRNA level, LS mean; value = 63.7 counts per million

For quick reference, copied from above:
Compound = CC(=O)c1nn(-c2ccc(Cl)cc2)/c(=N/N=C(\C)c2ccc(NC(=O)c3ccccc3)cc2)s1; cell line = HepG2; conditions = 10 µM; quantity = viability; value = 3.59%
Compound = Cn1cc(C2=C(c3ccc(Cl)cc3Cl)C(=O)NC2=O)c2ccccc21; cell line = primary human cortical neurons; assay = Western blot; conditions = 5 µM, 48 h, with: HIV Tat and maraviroc 2.5 µM; quantity = NeuN protein level; value = increased
Compound = Cc1cnc2ccc3c(c2n1)N1CCC(O)N=C1N3C (stereo not drawn); cell line = BALB/c 3T3; assay = colony forming efficiency; conditions = 100 µM; quantity = colony number; value = 0 colonies per plate
